Assay results of several laboratories.
A part holds a random share of what one study measured.

Study 1
Target: RNA binding protein fox-1 homolog 2, RRM domain, GST-SBP tag (RBFOX2, Homo sapiens, UniProt O43251-10, residues 100-194)
Method: RNA Bind-n-Seq
Molecule type: RNA
Matrix: in vitro
Tested at: 365 nM
Setting: natural RNA segment, single round, ends assumed
Reference: no-protein control
Reading: higher = stronger binding
Target sequence (chain): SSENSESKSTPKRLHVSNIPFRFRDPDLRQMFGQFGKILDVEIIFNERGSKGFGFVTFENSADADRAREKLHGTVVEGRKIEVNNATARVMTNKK
Oligonucleotide | RBNS enrichment (R)
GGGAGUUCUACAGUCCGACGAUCGGUGAGAGUAAUGAGGCUUGGGGCUGGAGAGGACAAGAUGGGUAAACCCUCACAUCAGAGUGACAUCCAGGAGGAAUAAGCUCCCAGGGCCUGUCUCAAGCUCUUCCUUAUGGAAUUCUCGGGUGCCAA | 0.495
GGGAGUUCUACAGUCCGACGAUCCCCUCCUCCUCGGCCUCCCUCCUCCCCUCCUUCGCUCGCUCAACCUCUUUUGUUCAGUACGUGUAACUUGAAGCUAAUUUGUACUACUGGAUAUCUGACUGGAGCCGCAGUGGAAUUCUCGGGUGCCAA | 0.41
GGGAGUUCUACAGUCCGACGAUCCUGUAGAUGAUGUAUUUUUUUCAUCUUUUUUGUUAACUGAUUUGCAAUAAAAAUGAUACUGAUGGUGUCUGGCUUCCACUCCCCUCUGCUCUGGCCUUUGGCUCCCUUUCUGGAAUUCUCGGGUGCCAA | 2.89
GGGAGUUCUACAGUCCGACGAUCAGAGUUUUAUGAGCUGUUAAGAAUGAGGUAGUUUCUCCUAGGACCCCCCAAAGACAGUGCAAGUAAUGACCGUUUGGAUCUCAUUCGUCGAUCUUUGAUAGUAUGUUCUGUGGAAUUCUCGGGUGCCAA | 0.59
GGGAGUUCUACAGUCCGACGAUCUGGUGAGGCAAGAAGGAUAUACAUUAUUUUAGAAUCAUUUACUAUUUAAAUGAGACAAUCAUAUUAUUUUAGAAUCAUUUAUUUUAAAUGAGACAAUCAUUUUAAGUUUUUGGAAUUCUCGGGUGCCAA | 0.766
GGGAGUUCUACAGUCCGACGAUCUGCAUAUUACACCAAACGUUUGAGGGAAAAAUCCUCAUUCGUAAAGGAUUUUGGAUGUAUAAUCUAAAACUCAACAAUAAAGAAAUAAUAUUCCAAGUCUCUGGUUUCCUUGGAAUUCUCGGGUGCCAA | 0.457
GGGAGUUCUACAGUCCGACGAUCGGCCAGAGAAGACAGUGCUCGUUAGCACUGGUCCAGGAAACCCUGGCUUGCUUUCCAAGCCCAAUGAAGGGAAAGUCAGCUUACAGAGCCAAUGAUGGAGCCACAUGAAUUGGAAUUCUCGGGUGCCAA | 0.343
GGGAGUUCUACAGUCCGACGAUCAUAUUAUUUUCUCUUUUGGUGUGGGAGAUCAAAGGUUUAAAGUCUAACUUCUAAGAUAUAUUUGCAGAAAGAAGCAACAUGACAAUAGAGAGAGUUAUGCUACAAUUAUUUGGAAUUCUCGGGUGCCAA | 0.855
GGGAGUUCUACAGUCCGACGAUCUUUUAAAAGAUCUUAAAAAUAAUGCCUCUGUCUAGCAUGCCAACAAGAAUGCAUUGAUAUUGUGAACAUUUGUGAUACAUGUAUUAAUAAAUAGAGCAAUUAAAAAUGGCUGGAAUUCUCGGGUGCCAA | 8.94
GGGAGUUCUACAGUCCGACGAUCACCAGGCUGGCCUUGAACACAGAAAGAGAUUCAUCUGCCUCUGCCUCCUGAGUGCUGGGAUUAAAGGCAAAAGCCACCACAGCCUGUUUUGUUUUGUUUUCGGUUUAAAAUGGAAUUCUCGGGUGCCAA | 0.44
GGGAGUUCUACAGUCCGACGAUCGCGGCCCCUCCUCUGCUUCCCCCUGAACCCACCCCCCACGGAAACCAGCCCUGCGGGCUAAGCAGGUGCGACCCCAGCAAGAGGGGUGCUCUGGGACCAGACAUGAAGUGUGGAAUUCUCGGGUGCCAA | 0.423
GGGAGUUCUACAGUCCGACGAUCAUGGCCUACAUAGGUACUCCCCCCUACCCCUAGGAUGCAGAGAGACGGGAACACGCCGGAGGGUAGAGCUGGGGAGAACCCAUUCUUCCUUGGAAGGAUCCGCUGAAGGUUGGAAUUCUCGGGUGCCAA | 0.833

Study 2
Target: Fragile X messenger ribonucleoprotein 1, C-terminal low-complexity region (Fmr1, Mus musculus, UniProt P35922)
Method: RNA Bind-n-Seq
Molecule type: RNA
Matrix: in vitro
Tested at: 200 nM
Setting: whole 134-nt RNA, ends assumed
Together with: 150 mM KCl
Reference: input library
Reading: higher = stronger binding
Oligonucleotide | log2 enrichment
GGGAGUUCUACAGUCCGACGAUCUCAAGUCCUGUGCUACACAUCGUAUGUACCGAAUCGGGGCCGGGCCGGGCCGGGGAAAGUAUUAUGUUACGCCGUUCGGAUCUGCACUUCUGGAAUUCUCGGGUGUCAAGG | 0.372
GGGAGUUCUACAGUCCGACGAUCAGUCCUGUGCUACACAUCGUAUGUACCGAAUCGGGGAAAAAAAGGGGUGGGGUGGGGAAAGUAUUAUGUUACGCCGUUCGGAUCUGCACUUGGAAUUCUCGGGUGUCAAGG | 0.766
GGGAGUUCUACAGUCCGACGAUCUAACUUUAGAGGAGGAUCUGAUGGAUAUGGCAGUGGACGUGGAUUUGGGGAUGGCUAUAAUGGGUAUGGAGGAUGACCUGGAGGUGGCAAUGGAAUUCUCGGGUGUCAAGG | 0.186
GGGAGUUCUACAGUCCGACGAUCCAAGUCCUGUGCUACACAUCGUAUGUACCGAAUCGGGAGGGUGGGAAAAAAAGGGAAAGUAUUAUGUUACGCCGUUCGGAUCUGCACUUCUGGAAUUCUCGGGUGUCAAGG | 0.719
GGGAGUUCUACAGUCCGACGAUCGUCCUGUGCUACACAUCGUAUGUACCGAAUCGGGAAAAAGGGAAAGGGAAAAAAAGGGAAAGUAUUAUGUUACGCCGUUCGGAUCUGCACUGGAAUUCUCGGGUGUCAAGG | -0.34
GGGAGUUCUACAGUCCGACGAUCACCAUGCAGGUGGGCAUCUUUGGGAAGUGGGGCAAGGAGGGGAUAGGGAGGGGGGUAACACUUUGGGAACAGGUGGUCCCAGGUCGUUUCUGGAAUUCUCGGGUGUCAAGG | 0.65
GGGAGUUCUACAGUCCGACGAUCAGUCCUGUGCUACACAUCGUAUGUACCGAAUCGGGCCCCGGGGCCCCGGGGCCCCGGGAAAGUAUUAUGUUACGCCGUUCGGAUCUGCACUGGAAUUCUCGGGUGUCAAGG | -0.0567
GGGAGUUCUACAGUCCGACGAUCACCAUGCAGGUGGCCAUCUUUGGGAAGUGGGGCAAGGGGGGGAUAGGGAGGGGGGUAACACUUUGGGAACAGGUGGUCCCAGGUCGUUUCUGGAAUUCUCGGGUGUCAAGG | 1
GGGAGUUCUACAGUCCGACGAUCCCUCAAGUCCUGUGCUACACAUCGUAUGUACCGAAUCGGGGCGGGCGGCGGGAAAGUAUUAUGUUACGCCGUUCGGAUCUGCACUUCCAGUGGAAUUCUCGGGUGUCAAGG | 0.52
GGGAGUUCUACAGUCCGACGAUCCAAGUCCUGUGCUACACAUCGUAUGUACCGAAUCGGGAAAGGGAAAGGGAAAGGGGAAAGUAUUAUGUUACGCCGUUCGGAUCUGCACUUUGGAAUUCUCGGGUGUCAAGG | 0.51

Study 3
Target: Hepatocyte nuclear factor 3-alpha (Foxa1, Mus musculus, UniProt P35582, residues 1-468, full length assumed)
Method: EMSA with sequencing
Molecule type: double-stranded DNA, one strand shown
Matrix: in vitro
Tested at: 10 and 20 nM
Setting: whole designed probe, mean of two concentrations, ends assumed
Reference: negative control set to 0
Reading: higher = stronger binding
Residues (chain): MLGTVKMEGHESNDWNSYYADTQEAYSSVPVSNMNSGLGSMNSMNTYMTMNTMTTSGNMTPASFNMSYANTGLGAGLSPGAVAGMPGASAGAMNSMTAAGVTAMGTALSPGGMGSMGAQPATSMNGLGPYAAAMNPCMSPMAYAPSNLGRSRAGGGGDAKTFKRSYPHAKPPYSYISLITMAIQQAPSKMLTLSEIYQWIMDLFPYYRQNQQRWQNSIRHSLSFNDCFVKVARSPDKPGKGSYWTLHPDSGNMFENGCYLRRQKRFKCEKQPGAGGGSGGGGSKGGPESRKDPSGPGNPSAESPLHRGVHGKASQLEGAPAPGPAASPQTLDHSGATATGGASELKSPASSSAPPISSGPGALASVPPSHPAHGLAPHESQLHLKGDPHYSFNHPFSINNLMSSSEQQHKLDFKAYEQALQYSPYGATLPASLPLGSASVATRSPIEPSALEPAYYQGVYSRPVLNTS
Oligonucleotide | normalised bound fraction [ratio]
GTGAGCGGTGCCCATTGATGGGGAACGTGTGTGCGCGCGCGTGTGTGTGTGTTTTCTTAAGCCGGGCTATTCAAACCCTGCTGCAATTCTCCGGTAAACAATGTTACATGGGGCATAATGCAAATAAACGGATTGCAAACGGCGCGGTTCGCGCACTTTGCAGCCGGCCCGGTGGAGCAGCCAGTGCCGGATTTCTCCCTTTTTTTGCAGATCTGCAGATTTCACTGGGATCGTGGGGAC | 0.424
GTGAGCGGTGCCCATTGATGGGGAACGCATGAGCCGCATTGCCCAGCAAAAGCCTCTAAGTGGTGATTTGCTGTTTGGCCTGAGAGTAATTTGGAGGCTGTGGCTGAGTCAGCTTCTCTTGTTGACTGAGCTGATGTCACTTTTGACCTTCATTGTTCCATAATTCCTTATGAAACTCTTCTGAAGCACTGAGAACCATCGACGGATCATATCAGCATGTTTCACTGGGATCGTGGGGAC | 0.0172
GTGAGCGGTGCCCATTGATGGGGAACAGAATCGGACGGAACGTTTCCACCATCTGGAACCACAGCAGCCAGAAGCAGAAAGGAGAGGTAATTGTCACCAAAGCATCACAAACTCTCCATGTTTACTTACTCTGCTCACACTTCTGGAGACATCTTCTCTTCCTCCCATATGGGGGGACAGCAAGGGAAAAACTGAAGGTGCATGTGAGCGTGAGAGAGTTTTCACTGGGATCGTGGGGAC | 0.305
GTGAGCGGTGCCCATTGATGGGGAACGTGAGCCACTGCGCCCAGCCCATAAATCCTTTTATAAGCTTAAAAAAAATTTCTTTTTTCTCTCCTGTATATTACTATGTTTTATATTTTAAGTAAACAAGAATATACCTATGAATACTGTACTCAATTTAAAGTAATCTACCATCAATTGCATTACTTCCAAATTAAATTTAAATGTCAGTTTAATTAATGATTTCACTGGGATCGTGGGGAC | 0.406
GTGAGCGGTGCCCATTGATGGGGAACTTAATTAAAGCTCAGATGTCTTTCCCAGGGCTGACTGTATTATTAGAGAATGCTTTTAGTAGATTCTCACATAGTTGGTAAAGGAATCTGGATGTTGACCTAGCTGTGATGTAACAGTAGCAACAGAGGGTGTCAGACAGCAGGGTCAATTTAACAAGGAAACACAGCTCATGTTACCAAAGGGTTTCTGTGTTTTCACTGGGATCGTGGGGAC | 0.00342
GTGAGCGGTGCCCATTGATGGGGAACATCTTCCCCCTCTTCCTTGCCCCACCAGCTCACCTTCCCGGGTATCTGCAAATAAGCAAAGTAAACAAAGCCGGCATTCGTTAACCCTCTTCTGGCGCAAACTGCACATTGGTCTGGATGAATCATGGTCCTTTGGCGACGCCAGGCTCCGGGAGAGCAAAGCACCGTGTCAGGGCCATGATCCGGGGTGGCCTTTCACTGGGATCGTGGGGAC | 0.487
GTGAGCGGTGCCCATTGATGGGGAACTACTGTGCAGCTGTAATTAGGCAGAGCACCAGGATACTTTCTGTTTTCAGCAAACACAGTATACAACAACATGTATGGTATACTTCCATTCATGTTTACTCTGAGAAATGACAGTGGGATCTGGAGTATGTGGCAGATTCATTTCTGTTACATAATCTTTTGTTTCTTTTCAATTTTTTACCATATGTATGTTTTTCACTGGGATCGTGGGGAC | 0.259
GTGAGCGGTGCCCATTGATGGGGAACATCTTCCCCCTCTTCCTTGCCCCACCAGCTCACCTTCCCGGGTTATTTGCAGATAGGAAAATAAATAAAGCCGGCATTCGTTAACCCTCTTCTGGCGCAAACTGCTGTTTGCTCTGCATGAATCATGGTCCTTACGCGACGCCAGGCTCCGGGAGAGCAAAGCACCGTGTCAGGCGCATGATCCGGGGTGGCCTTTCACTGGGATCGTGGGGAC | 0.345

Study 4
Target: Histone acetyltransferase KAT6A, winged helix 1, GST fusion (KAT6A, Homo sapiens, UniProt Q92794, residues 1-85)
Method: protein binding microarray
Molecule type: double-stranded DNA, one strand shown
Matrix: in vitro
Tested at: not given
Setting: 8-mer, flanks averaged, mean of 2 arrays, mostly near background
Reference: not given
Reading: higher = stronger binding
Construct (chain): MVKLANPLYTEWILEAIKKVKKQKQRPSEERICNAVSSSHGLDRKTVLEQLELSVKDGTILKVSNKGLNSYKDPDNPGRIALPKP
Oligonucleotide | E-score
ATCATTGC | -0.1
CACTTTCC | -0.106
CCCTAATC | -0.195
AAGTGGAC | -0.153
ACTTCATA | -0.0302
CTCCGATC | 0.0942
CGTAGCAA | -0.047
CAACCTGG | -0.224
AGCTCCCG | 0.18
GACCAACC | -0.0403
GGGACGGA | 0.233
ACCGCGTG | 0.345
ACGCCCAA | -0.0729
AGCCCCCA | -0.198
TCTAGCAA | -0.131
ACGTAACA | -0.165
ACCAGAAA | -0.272
GGGTGCCA | -0.0336
ATACTCCC | 0.0587
AAGGACAT | -0.0555
CAAACCCA | -0.255
AACGCACA | -0.0442
CCCCAACG | -0.136
GTCTCCCA | -0.157
AGTGTAGA | -0.186

Excerpt of the above (study 4):
Oligonucleotide | E-score
ACGCCCAA | -0.0729
AGCCCCCA | -0.198
TCTAGCAA | -0.131
ACGTAACA | -0.165
